Assay results collected from several papers.
Parts stem from different laboratories: compare values within a part only.

Block 1 — technique: competition protein-binding microarray; molecule type: double-stranded DNA, one strand shown; sample: in vitro; tested at: 2 µM; together with: Cbf1 competitor, 0.05 µM; direction: higher = stronger binding; endpoint: fluorescence intensity; constant ends, left off below: … GTCTTGATTCGCTTGACGCTGCTG
Target: Phosphate system positive regulatory protein PHO4, full length, GST-tagged (PHO4, Saccharomyces cerevisiae, UniProt P07270, residues 1-312)
Setting: whole 60-bp probe, lowest competitor level
Residues (chain): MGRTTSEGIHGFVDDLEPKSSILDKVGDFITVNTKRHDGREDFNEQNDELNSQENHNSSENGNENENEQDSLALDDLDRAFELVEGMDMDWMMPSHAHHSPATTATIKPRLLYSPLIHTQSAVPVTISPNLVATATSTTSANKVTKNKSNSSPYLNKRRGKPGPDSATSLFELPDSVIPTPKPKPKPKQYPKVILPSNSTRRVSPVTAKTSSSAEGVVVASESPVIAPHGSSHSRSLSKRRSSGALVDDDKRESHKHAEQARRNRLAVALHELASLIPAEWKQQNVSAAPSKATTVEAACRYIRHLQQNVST
CACTTATCTGTTGAAAAGGTGTGCCTATAGCAACTA: 6880 a.u.
TATGGTAACCTCTGCCATGCTGTCTCTGTTCCTTGA: 5140 a.u.
CTAACGAAGGTTTGGCACGTGTTTTACAAGCCAAGT: 18100 a.u.
AAATTACTAAGTTGGGTAGTGGGTGACGCCGTATGA: 4080 a.u.
CTTCTGTAAATTTGCGTTGTGGGTGGACGCGCCCCG: 4590 a.u.
ATCTTTCGGAATTGTGAGGTGCAGGGATGCGGACTT: 4500 a.u.

Block 2 — technique: protein binding microarray; molecule type: double-stranded DNA, one strand shown; sample: in vitro; tested at: not given; baseline: not given; direction: higher = stronger binding; endpoint: E-score
Target: Histone acetyltransferase KAT6A, winged helix 1, GST fusion (KAT6A, Homo sapiens, UniProt Q92794, residues 1-85)
Setting: 8-mer, flanks averaged, mean of 2 arrays, mostly near background
Construct (chain): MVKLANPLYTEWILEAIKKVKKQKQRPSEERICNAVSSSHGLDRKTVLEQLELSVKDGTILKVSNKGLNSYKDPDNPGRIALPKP
AACCCCGC: 0.317
GTACCAGA: -0.0782
ATAGCGTC: 0.161
ATTGGCAG: -0.0792
ACGAGGCT: -0.137

Block 3 — technique: protein-binding microarray; molecule type: double-stranded DNA, one strand shown; sample: in vitro; tested at: not given; direction: higher = stronger binding; endpoint: E-score
Target: Protein C-ets-1 (ETS1, Homo sapiens, UniProt P14921, residues 1-441, K379A, full length assumed)
Sequence of UniProt P14921 (whole entry, unmodified, looked up): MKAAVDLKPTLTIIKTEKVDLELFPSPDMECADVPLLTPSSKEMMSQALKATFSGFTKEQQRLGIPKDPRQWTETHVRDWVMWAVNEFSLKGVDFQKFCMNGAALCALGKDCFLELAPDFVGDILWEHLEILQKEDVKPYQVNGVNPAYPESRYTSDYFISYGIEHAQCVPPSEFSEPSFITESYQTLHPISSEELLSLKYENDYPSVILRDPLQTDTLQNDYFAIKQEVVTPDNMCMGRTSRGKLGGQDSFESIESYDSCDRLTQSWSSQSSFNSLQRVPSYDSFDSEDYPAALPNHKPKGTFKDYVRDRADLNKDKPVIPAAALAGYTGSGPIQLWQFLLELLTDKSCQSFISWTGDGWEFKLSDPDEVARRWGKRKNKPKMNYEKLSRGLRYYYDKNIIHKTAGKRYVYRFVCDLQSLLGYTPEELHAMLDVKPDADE
Setting: k-mer, scored over probes, only values ≥0.25
GCCGACAC: 0.258
CACATAAA: 0.256
TACACACA: 0.291
TGACGTCA: 0.305
ATAACGTG: 0.286

Single results of other studies
PhoQ, residues 284 288 289 292 302 303 HSSMNL  fold induction (PhoP, residues 12 14 15 18 19 LHHVQ (Escherichia coli, UniProt P23836); Sort-seq, item: YFP reporter; E. coli; PhoQ-PhoP variant library, together with: 10 µM Mg2+; baseline: high Mg2+ state, higher = stronger signaling): 17.5

For quick reference, copied from above (block 3):
TACACACA: 0.291
TGACGTCA: 0.305
ATAACGTG: 0.286
